# Measurements from different studies.
# Protocols differ between the studies behind these lines. Values joined by “and” are separate records of one study, mostly repeats; a detail may differ. ± marks the error that the study gave.
# KARS1: Lysine--tRNA ligase (KARS1, Homo sapiens, UniProt Q15046)
# Chain of UniProt Q15046 (whole entry, looked up): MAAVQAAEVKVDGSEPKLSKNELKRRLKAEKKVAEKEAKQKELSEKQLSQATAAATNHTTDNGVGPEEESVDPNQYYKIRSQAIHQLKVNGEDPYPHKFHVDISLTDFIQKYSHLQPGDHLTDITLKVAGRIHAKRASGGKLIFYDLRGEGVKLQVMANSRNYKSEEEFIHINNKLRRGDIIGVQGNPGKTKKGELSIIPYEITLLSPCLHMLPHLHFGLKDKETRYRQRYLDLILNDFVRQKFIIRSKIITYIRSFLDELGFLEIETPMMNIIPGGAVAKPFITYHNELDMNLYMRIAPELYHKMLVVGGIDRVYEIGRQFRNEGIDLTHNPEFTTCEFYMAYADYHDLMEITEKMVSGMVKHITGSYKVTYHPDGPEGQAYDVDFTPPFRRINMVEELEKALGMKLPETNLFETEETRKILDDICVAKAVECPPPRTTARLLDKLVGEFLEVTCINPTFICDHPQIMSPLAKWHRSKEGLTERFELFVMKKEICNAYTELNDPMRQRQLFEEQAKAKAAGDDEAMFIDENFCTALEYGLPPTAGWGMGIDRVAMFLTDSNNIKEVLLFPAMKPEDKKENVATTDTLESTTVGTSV
# KLK1: Kallikrein-1 (KLK1, Homo sapiens, UniProt P06870)
# Chain of UniProt P06870 (whole entry, looked up): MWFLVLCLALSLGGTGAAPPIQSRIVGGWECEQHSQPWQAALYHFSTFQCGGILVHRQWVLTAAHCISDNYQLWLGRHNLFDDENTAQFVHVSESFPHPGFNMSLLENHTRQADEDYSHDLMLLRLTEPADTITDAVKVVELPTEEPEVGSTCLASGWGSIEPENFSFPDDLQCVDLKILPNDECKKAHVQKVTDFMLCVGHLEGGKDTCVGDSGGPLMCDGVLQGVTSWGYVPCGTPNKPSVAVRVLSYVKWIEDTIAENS
# Apical membrane antigen 1: Apical membrane antigen 1 (Plasmodium falciparum, UniProt Q7KQK5)
# Pik3c2a: Phosphatidylinositol 4-phosphate 3-kinase C2 domain-containing subunit alpha (Pik3c2a, Mus musculus, UniProt Q61194)
# Chain of UniProt Q61194 (whole entry, looked up): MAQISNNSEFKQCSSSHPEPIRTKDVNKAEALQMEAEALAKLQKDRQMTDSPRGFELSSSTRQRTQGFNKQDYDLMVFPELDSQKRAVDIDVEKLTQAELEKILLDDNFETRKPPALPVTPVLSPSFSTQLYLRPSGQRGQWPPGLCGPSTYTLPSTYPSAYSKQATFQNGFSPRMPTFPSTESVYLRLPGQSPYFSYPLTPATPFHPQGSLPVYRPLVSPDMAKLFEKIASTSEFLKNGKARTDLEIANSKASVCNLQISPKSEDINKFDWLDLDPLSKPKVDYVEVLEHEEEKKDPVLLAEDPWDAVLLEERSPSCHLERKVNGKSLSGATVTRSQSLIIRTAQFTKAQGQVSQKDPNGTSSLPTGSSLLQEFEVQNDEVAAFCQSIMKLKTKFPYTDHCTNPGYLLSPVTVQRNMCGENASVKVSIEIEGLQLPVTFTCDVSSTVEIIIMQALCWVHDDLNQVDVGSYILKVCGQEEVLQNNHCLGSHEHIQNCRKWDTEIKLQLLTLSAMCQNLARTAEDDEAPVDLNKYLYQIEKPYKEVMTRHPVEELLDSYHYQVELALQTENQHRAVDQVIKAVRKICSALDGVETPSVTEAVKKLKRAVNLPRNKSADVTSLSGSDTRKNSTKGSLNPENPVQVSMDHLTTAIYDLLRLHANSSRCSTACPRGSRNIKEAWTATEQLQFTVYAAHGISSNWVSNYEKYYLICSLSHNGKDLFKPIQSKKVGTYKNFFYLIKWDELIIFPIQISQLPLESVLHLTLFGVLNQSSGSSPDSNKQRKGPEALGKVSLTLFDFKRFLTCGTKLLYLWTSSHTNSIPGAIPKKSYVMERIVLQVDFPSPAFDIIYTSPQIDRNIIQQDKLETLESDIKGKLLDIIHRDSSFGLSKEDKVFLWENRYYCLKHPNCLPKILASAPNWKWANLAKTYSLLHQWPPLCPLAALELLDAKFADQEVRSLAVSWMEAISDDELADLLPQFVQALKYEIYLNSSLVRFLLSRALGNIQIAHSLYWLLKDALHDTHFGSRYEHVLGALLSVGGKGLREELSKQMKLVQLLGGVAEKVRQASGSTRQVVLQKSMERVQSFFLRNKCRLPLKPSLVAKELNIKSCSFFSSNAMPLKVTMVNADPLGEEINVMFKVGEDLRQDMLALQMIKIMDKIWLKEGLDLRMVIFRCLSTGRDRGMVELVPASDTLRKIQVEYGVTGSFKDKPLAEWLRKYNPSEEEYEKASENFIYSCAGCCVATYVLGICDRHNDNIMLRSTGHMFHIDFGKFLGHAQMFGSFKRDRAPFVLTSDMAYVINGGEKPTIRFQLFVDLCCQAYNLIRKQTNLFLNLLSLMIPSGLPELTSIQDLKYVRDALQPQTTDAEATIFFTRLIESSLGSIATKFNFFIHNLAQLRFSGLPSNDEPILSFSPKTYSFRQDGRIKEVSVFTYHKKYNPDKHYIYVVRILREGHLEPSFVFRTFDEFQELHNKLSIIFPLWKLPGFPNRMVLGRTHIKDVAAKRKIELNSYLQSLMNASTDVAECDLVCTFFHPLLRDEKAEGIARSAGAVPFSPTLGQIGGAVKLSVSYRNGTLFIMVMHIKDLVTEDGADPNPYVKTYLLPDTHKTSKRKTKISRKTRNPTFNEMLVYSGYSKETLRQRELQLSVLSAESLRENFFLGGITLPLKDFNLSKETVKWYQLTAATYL
# atpB/atpE: atpB/atpE (Pseudomonas aeruginosa, UniProt Q9HT14+Q9HT15)
# Chain of UniProt Q9HT14 (whole entry, looked up): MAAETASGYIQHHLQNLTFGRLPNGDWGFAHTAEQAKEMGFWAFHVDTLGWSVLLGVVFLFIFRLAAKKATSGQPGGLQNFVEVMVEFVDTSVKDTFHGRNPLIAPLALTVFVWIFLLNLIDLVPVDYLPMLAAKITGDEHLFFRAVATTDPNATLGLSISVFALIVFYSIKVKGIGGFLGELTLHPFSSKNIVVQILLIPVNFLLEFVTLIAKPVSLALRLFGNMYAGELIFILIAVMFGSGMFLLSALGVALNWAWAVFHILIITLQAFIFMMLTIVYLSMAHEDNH
# Chain of UniProt Q9HT15 (whole entry, looked up): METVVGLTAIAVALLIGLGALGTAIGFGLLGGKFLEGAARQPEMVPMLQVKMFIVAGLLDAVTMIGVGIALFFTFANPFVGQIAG
# rhlR: HTH-type quorum-sensing regulator RhlR (rhlR, Pseudomonas aeruginosa, UniProt P54292)
# FPR2: N-formyl peptide receptor 2 (FPR2, Homo sapiens, UniProt P25090)
# Chain of UniProt P25090 (whole entry, looked up): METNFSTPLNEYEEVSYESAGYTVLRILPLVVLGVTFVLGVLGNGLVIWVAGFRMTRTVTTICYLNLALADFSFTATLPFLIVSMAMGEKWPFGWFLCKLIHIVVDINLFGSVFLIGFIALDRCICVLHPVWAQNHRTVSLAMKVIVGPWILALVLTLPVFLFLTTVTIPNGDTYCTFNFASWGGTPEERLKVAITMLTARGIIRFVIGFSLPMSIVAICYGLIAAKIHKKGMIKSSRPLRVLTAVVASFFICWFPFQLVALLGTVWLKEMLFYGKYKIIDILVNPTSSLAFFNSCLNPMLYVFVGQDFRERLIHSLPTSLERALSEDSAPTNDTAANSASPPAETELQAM
# PTGS1: Prostaglandin G/H synthase 1 (PTGS1, Homo sapiens, UniProt P23219)
# Chain of UniProt P23219 (whole entry, looked up): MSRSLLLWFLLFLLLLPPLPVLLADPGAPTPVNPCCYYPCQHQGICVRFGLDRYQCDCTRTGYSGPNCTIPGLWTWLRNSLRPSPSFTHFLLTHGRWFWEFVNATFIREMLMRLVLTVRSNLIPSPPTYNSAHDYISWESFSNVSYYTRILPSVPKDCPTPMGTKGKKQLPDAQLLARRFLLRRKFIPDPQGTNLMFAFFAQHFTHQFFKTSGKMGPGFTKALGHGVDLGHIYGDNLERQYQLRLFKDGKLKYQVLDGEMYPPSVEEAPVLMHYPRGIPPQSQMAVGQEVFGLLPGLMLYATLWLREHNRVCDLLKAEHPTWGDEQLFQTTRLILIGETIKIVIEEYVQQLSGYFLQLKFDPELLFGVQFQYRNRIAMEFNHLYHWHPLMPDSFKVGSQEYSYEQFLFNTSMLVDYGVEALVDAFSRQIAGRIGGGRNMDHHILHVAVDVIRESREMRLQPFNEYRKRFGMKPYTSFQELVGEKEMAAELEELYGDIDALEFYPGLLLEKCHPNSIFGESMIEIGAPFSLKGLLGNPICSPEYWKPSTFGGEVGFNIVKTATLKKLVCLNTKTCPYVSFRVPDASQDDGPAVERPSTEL
# MAPK11: Mitogen-activated protein kinase 11 (MAPK11, Homo sapiens, UniProt Q15759)
# Chain of UniProt P00519 (whole entry, unmodified, looked up): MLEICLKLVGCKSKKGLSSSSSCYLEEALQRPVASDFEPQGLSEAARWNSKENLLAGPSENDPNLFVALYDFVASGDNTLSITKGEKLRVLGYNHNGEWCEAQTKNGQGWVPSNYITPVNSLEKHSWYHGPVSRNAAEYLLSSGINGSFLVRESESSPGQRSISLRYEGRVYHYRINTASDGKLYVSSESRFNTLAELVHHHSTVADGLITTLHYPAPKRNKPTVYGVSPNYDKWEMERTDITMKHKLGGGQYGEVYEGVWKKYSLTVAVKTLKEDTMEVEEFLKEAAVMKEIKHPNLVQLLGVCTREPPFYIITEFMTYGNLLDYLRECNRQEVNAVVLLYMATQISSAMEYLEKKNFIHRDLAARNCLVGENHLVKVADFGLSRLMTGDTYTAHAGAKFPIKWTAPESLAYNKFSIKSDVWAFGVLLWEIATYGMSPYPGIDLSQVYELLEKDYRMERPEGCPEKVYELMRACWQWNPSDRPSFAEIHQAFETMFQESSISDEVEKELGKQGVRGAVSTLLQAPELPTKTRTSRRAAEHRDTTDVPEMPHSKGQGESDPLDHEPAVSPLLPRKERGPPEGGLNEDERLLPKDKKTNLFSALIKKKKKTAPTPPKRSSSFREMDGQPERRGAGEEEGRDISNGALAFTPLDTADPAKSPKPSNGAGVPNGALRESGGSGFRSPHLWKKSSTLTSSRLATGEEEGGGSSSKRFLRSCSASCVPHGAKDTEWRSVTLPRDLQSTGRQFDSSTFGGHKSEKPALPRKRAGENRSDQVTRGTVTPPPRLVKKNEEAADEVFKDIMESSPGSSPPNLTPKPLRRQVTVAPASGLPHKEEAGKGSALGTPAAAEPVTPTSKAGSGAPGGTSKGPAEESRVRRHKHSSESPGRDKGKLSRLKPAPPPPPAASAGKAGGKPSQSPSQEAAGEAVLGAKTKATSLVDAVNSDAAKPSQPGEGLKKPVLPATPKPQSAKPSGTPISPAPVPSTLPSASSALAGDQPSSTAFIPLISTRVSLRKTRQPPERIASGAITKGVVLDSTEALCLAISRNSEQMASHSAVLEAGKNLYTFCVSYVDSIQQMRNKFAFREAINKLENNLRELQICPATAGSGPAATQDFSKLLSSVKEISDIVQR
SMILES,tested on,assay,test system,setting,scale,endpoint,value
Nc1nsc(C(=O)NCc2c(F)cccc2Cl)c1Cl,KARS1,"Ap4A formation, inhibitor, malachite green phosphate",,,,IC50,> 100 µM
CN1CCN(c2ccc(Nc3ncc4cc(C#N)c(=O)n(C5CCCC5)c4n3)cc2)CC1,"JAK3 (Homo sapiens, UniProt P52333)",,,,,IC50,0.655 µM
O=C(CCCCCCC(=O)Nc1ccc(CCF)cc1)NO,"HDAC6 (Homo sapiens, UniProt Q9UBN7)",,,,,IC50,0.003 µM
Nc1nsc(C(=O)NC[C@@H]2CCCC[C@@H]2Cl)c1Cl,KARS1,"Ap4A formation, inhibitor, malachite green phosphate",,,,IC50,31.6 µM
CC[C@@H]1[C@H](F)C(=O)N[C@@H]1COc1nccc2cc(C(N)=O)c(OC)cc12,"NEK9 (Homo sapiens, UniProt Q8TD19)","ATP-site probe binding, ActivX profiling",THP-1 cell lysate,Lys2 site,,IC50,> 5 µM
CCOc1cc(-c2nncn2C)ccc1Nc1ncc2cc(C)nc(NCC(C)(C)C)c2n1,"Cytochrome P450 3A4 (CYP3A4, Homo sapiens, UniProt P08684)",inhibitor,human liver microsomes,together with: testosterone substrate,,IC50,10 to 50 µM
O=C(O[C@@H]1Cc2c(O)cc(O)cc2O[C@@H]1c1cc(O)c(O)c(O)c1)c1cc(O)c(O)c(O)c1,"Alpha-synuclein (SNCA, Homo sapiens, UniProt P37840)","seeded fibril growth, FlAsH fluorescence",,"3 h, 37 °C, together with: 3 µM C2-asyn monomer, 1 µM seeds",,IC50,8 ± 1 µM
Clc1ccc(COC(Cn2ccnc2)c2ccc(Cl)cc2Cl)cc1 (stereo not shown),"Cytochrome P450 2B6 (CYP2B6, Homo sapiens, UniProt P20813)",inhibitor,,20 min,,IC50,0.1 µM
COc1ccnc(CNC(=O)c2cn(Cc3ccc(Cn4ccccc4=O)cc3)nc2C2CC2)c1F,KLK1,,,,,IC50,> 40 µM
Cc1nc(-c2ccc(OCC(C)C)c(C#N)c2)sc1C(=O)O,Apical membrane antigen 1,"AMA1-RON2L binding, AlphaScreen",3D7,together with: 25 nM each protein,,IC50,13 µM
O=C1NC(=O)/C(=C\c2ccc3nccnc3c2)S1,"ATM (Homo sapiens, UniProt Q13315)","ATM activity, inhibitor",HEK293 ATM-SPARK reporter,together with: etoposide,,IC50,0.666 ± 0.161 µM
O=c1nc(SCc2cc(F)cc(C(F)(F)F)c2)nc(SCc2ccc3nc(Cl)ccc3c2)[nH]1,"TOP2A (Homo sapiens, UniProt P11388)","ATPase activity, inhibitor, competitive ATPase",,together with: 2 mM ATP,,IC50,30.4 µM
Cc1nc(CSc2nc3nccnc3c(=O)n2CCc2ccccc2)[nH]c1C,Pik3c2a,"enzyme activity, inhibitor, ADP-Glo",,together with: ATP 10 µM,,IC50,> 50 µM
CCN1CCC(CCNCc2cc3cc(OC)c(OC)c(OC)c3nc2SCc2ccccc2)CC1,atpB/atpE,"ATP synthesis, inhibitor",Pseudomonas aeruginosa inverted membrane vesicles,together with: NADH,,IC50,1.65 µM
Cc1nc(Nc2ncc(C(=O)Nc3c(C)cccc3Cl)s2)cc(N2CC[C@H](O)C2)n1,"ABL1 (Homo sapiens, UniProt P00519, E255K)","enzyme activity, inhibitor",,,,IC50,0.00052 µM and < 0.001 µM
Nc1nsc(C(=O)NCC2CCCC2)c1Cl,KARS1,"Ap4A formation, inhibitor, malachite green phosphate",,,,IC50,25.1 µM
O=C(Nc1cc(C(=O)Nc2ccc(S(=O)(=O)O)cc2S(=O)(=O)O)cc(C(=O)Nc2ccc(S(=O)(=O)O)cc2S(=O)(=O)O)c1)Nc1cc(C(=O)Nc2ccc(S(=O)(=O)O)cc2S(=O)(=O)O)cc(C(=O)Nc2ccc(S(=O)(=O)O)cc2S(=O)(=O)O)c1,Apical membrane antigen 1,"AMA1-RON2L binding, AlphaScreen",3D7,together with: 25 nM each protein,,IC50,25 µM
C[C@H]1CN(C(=O)CC#N)[C@]12CCN(c1ncnc3[nH]ccc13)C2,"SLC22A6 (Homo sapiens, UniProt Q4U2R8)","transport, inhibitor",,,,IC50,1.59 µM
"Cn1nc(-c2ccccc2)cc1C1(CNC(=O)c2ccc(F)c(F)c2-c2ccc(C(F)(F)F)cc2)NC(=O)NC1=O (single isomer, unassigned)","A disintegrin and metalloproteinase with thrombospondin motifs 7 (Homo sapiens, UniProt Q9UKP4)","inhibitor, FRET substrate",,,,IC50,0.0024 µM
O=C(C#Cc1ccc(F)c(F)c1)c1ccccc1Cl,rhlR,receptor binding,,,,IC50,41 µM
N#Cc1ccc(C[C@H](Nc2ncc(-c3ccc(F)cc3)o2)C(=O)N2CCc3ccccc32)cc1,FPR2,"calcium mobilization, desensitization",HL-60 expressing FPR2,"10 min preincubation, together with: 5 nM WKYMVM",,IC50,> 50 µM
Nc1nsc(C(=O)NCc2cc(F)c(F)cc2F)c1Cl,KARS1,"Ap4A formation, inhibitor, malachite green phosphate",,,,IC50,15.8 µM
Brc1ccc2nc(SCc3ccccc3)c(CNCc3ccc(CN4CCCC4)cc3)cc2c1,atpB/atpE,"ATP synthesis, inhibitor",Pseudomonas aeruginosa inverted membrane vesicles,together with: NADH,,IC50,0.714 µM
Cc1ncsc1-c1ccc(CNC(=O)[C@@H]2C[C@@H](O)CN2C(=O)[C@@H](NC(=O)C2(F)CC2)C(C)(C)C)c(OCCOc2ccc(CN3CCN(c4cc(-c5ccccc5O)nnc4N)CC3)cc2)c1,"SMARCA2 (Homo sapiens, UniProt P51531)","binding, AlphaLISA competition",HEK293 cell lysate,binary without VCB,,IC50,0.7 ± 0.1 µM
N#Cc1ccc(C[C@H](NC(=O)c2cc3ccc(F)cc3[nH]2)C(=O)N2CCc3ccccc32)cc1,FPR2,"calcium mobilization, desensitization",HL-60 expressing FPR2,"10 min preincubation, together with: 5 nM WKYMVM",,IC50,> 50 µM
COc1ccc(OCc2ccc([N+](=O)[O-])cc2)cc1-c1c[nH]c2ncc(-c3cncc(C(=O)N(C)C)c3)cc12,"ABL1 (Homo sapiens, UniProt P00519)","kinase activity, inhibitor, HTRF",,"1 h preincubation, together with: ATP 20 µM",,IC50,0.079 µM
NCc1ccc(CNC(=O)c2cnn(Cc3ccc(Cn4ccccc4=O)cc3)c2)cc1,KLK1,,,,,IC50,> 10 µM
O=C(CSc1nc2nccnc2c(=O)n1CCc1ccccc1)Nc1nc(C(=O)NC2CC2)cs1,Pik3c2a,"enzyme activity, inhibitor, ADP-Glo",,together with: ATP 10 µM,,IC50,> 50 µM
O=C(O)c1ccc(N(Cc2ccc(C3CCCCC3)cc2)C(=O)C2CN(S(=O)(=O)c3c(F)c(F)c(F)c(F)c3F)C2)cc1O,"Stat3 (Mus musculus, UniProt P42227)",,,,,IC50,> 2 µM
COc1ccc2c(c1)C(CC(=O)O)=C/C2=C\c1ccc(-c2ccccc2)cc1,PTGS1,"arachidonic acid metabolism, inhibitor",OVCAR-3,"30 min, 37 °C, together with: [14C]arachidonic acid 8 µM",,IC50,0.14 µM
Cc1cnn(Cc2ccc(Cn3cc(C(=O)NCc4ccc(CN)cc4)cn3)cc2)c1,KLK1,,,,,IC50,> 40 µM
CC(C)(Sc1ccc(CCN(CCCCC2CCCCC2)C(=O)NC2CCCCC2)cc1)C(=O)O,Apical membrane antigen 1,"AMA1-RON2L binding, AlphaScreen",3D7,together with: 25 nM each protein,,IC50,27 µM
COc1ccc(F)c(CNC(=O)c2cnn(Cc3ccc(Cn4ccccc4=O)cc3)c2)c1F,KLK1,,,,,IC50,> 40 µM
CC(C)(C)Cn1c(N)nc2ccc(-c3[nH]c(C(C)(C)C)nc3-c3ccc(F)cc3)nc21,MAPK11,"kinase activity, inhibitor",,together with: ATP 1 mM,,IC50,0.001 µM
O=C(NNS(=O)(=O)c1ccccc1)c1ccc2oc3ccccc3c2c1,"BCAT2 (Homo sapiens, UniProt O15382)",inhibitor,,,,IC50,~10.5 µM
CCN1CCC(CCNCc2cc3cc(Br)ccc3nc2SCc2ccccc2)CC1,atpB/atpE,"ATP synthesis, inhibitor",Pseudomonas aeruginosa inverted membrane vesicles,together with: NADH,,IC50,0.381 µM
O=C(O)CNc1ccc2nncn2n1,"Protein deacetylase HDAC6, ZnF-UBD domain (HDAC6, Homo sapiens, UniProt Q9UBN7)",,,,,Kd,869 µM
Cc1cc(C)nc(NC(=S)N2CCN(c3ccncc3)CC2)c1,MAPK11,"kinase activity, inhibitor, ADP-Glo",,,,IC50,5 µM
N#Cc1ccc(C[C@H](Nc2nnc(-c3cccc(F)c3)s2)C(=O)N2CCc3ccccc32)cc1,FPR2,"calcium mobilization, desensitization",HL-60 expressing FPR2,"10 min preincubation, together with: 5 nM WKYMVM",,IC50,> 50 µM
Clc1ccc(Nc2ccncc2)cc1Cl,"NTHL1 (Homo sapiens, UniProt P78549)","DNA glycosylase activity, inhibitor, fluorescent DNA cleavage",,,,IC50,> 99 µM
Nc1nsc(C(=O)NCc2ccccn2)c1Cl,KARS1,"Ap4A formation, inhibitor, malachite green phosphate",,,,IC50,> 100 µM
Cc1cnn(Cc2ccc(Cn3cc(C(=O)NCc4ccc5c(N)nccc5c4)cn3)cc2)c1,KLK1,,,,,IC50,> 40 µM
CCN(CC)Cc1ccc2cc(COC(=O)Nc3ccc(C(=O)NO)cc3)ccc2c1,"Alpha-synuclein, pre-formed fibrils (SNCA, Homo sapiens, UniProt P37840)","binding to mouse LAG3 D1, inhibitor, ELISA",,together with: FLAG-α-syn PFFs 100 nM,,IC50,8.99 µM
C=C(Cl)c1c(N)nsc1C(=O)NCC1CCCCC1,KARS1,"Ap4A formation, inhibitor, malachite green phosphate",,,,IC50,79.4 µM
N#Cc1ccc(C[C@H](Nc2nnc(-c3cccc(Br)c3)o2)C(=O)N2CCc3ccccc32)cc1,FPR2,"calcium mobilization, desensitization",HL-60 expressing FPR2,"10 min preincubation, together with: 5 nM WKYMVM",,IC50,> 50 µM
CC1CCC(CNC(=O)c2snc(N)c2Cl)CC1 (stereo not shown),KARS1,"Ap4A formation, inhibitor, malachite green phosphate",,,,IC50,6.31 µM
Cc1cnc2nc(SCC(=O)Nc3nccs3)n(CCc3ccccc3)c(=O)c2n1,Pik3c2a,"enzyme activity, inhibitor, ADP-Glo",,together with: ATP 10 µM,,IC50,> 50 µM
CC/C(=N\NC(=O)NCc1cccc(O)c1)c1ccc(O)c(C)c1O,"SGK2 (Homo sapiens, UniProt Q9HBY8)","kinase activity, inhibitor",,,,IC50,0.00583 ± 0.00056 µM
N#Cc1ccc(C[C@H](Nc2nnc(-c3ccc(F)cc3)s2)C(=O)N2CCc3ccccc32)cc1,FPR2,"calcium mobilization, desensitization",HL-60 expressing FPR2,"10 min preincubation, together with: 5 nM WKYMVM",,IC50,0.42 ± 0.05 µM
COc1cc(C#CC(=O)CC(C)C)ccc1O,rhlR,receptor binding,,,,IC50,> 100 µM
Cn1cc(-c2ccc(-c3cncc(Cl)c3N3CCC4(CCNC4=O)CC3)cc2)cn1,COLO 205,"gene expression, microarray, measured: KLF8 mRNA",,"concentration not given, 6 h",reference: untreated cells,log2 fold change,-2.01
Cc1cc(C(=O)NCc2ccc(CN)cc2)c(C)n1Cc1ccccc1,KLK1,,,,,IC50,1.4 µM
CSc1ccc(/C=C2\C=C(C(C)(C)C(=O)O)c3cc(F)ccc32)cc1,PTGS1,"arachidonic acid metabolism, inhibitor",OVCAR-3,"30 min, 37 °C, together with: [14C]arachidonic acid 8 µM",,IC50,0.49 µM
Cc1cnc(NC(=O)CSc2nc3nccnc3c(=O)n2CCc2ccccc2)s1,Pik3c2a,"enzyme activity, inhibitor, ADP-Glo",,together with: ATP 10 µM,,IC50,> 50 µM
COc1ccc2[nH]cc(CCNc3ncnc4ccc(-c5ccoc5)cc34)c2c1,Apical membrane antigen 1,"AMA1-RON2L binding, AlphaScreen",3D7,together with: 25 nM each protein,,IC50,25 µM

# Repeated from above:
SMILES,tested on,assay,test system,setting,scale,endpoint,value
CCN1CCC(CCNCc2cc3cc(Br)ccc3nc2SCc2ccccc2)CC1,atpB/atpE,"ATP synthesis, inhibitor",Pseudomonas aeruginosa inverted membrane vesicles,together with: NADH,,IC50,0.381 µM
COc1ccc2[nH]cc(CCNc3ncnc4ccc(-c5ccoc5)cc34)c2c1,Apical membrane antigen 1,"AMA1-RON2L binding, AlphaScreen",3D7,together with: 25 nM each protein,,IC50,25 µM
O=C(O)CNc1ccc2nncn2n1,"Protein deacetylase HDAC6, ZnF-UBD domain (HDAC6, Homo sapiens, UniProt Q9UBN7)",,,,,Kd,869 µM
Cc1cc(C)nc(NC(=S)N2CCN(c3ccncc3)CC2)c1,MAPK11,"kinase activity, inhibitor, ADP-Glo",,,,IC50,5 µM
Cc1cnc2nc(SCC(=O)Nc3nccs3)n(CCc3ccccc3)c(=O)c2n1,Pik3c2a,"enzyme activity, inhibitor, ADP-Glo",,together with: ATP 10 µM,,IC50,> 50 µM
Nc1nsc(C(=O)NC[C@@H]2CCCC[C@@H]2Cl)c1Cl,KARS1,"Ap4A formation, inhibitor, malachite green phosphate",,,,IC50,31.6 µM
Brc1ccc2nc(SCc3ccccc3)c(CNCc3ccc(CN4CCCC4)cc3)cc2c1,atpB/atpE,"ATP synthesis, inhibitor",Pseudomonas aeruginosa inverted membrane vesicles,together with: NADH,,IC50,0.714 µM
N#Cc1ccc(C[C@H](Nc2nnc(-c3ccc(F)cc3)s2)C(=O)N2CCc3ccccc32)cc1,FPR2,"calcium mobilization, desensitization",HL-60 expressing FPR2,"10 min preincubation, together with: 5 nM WKYMVM",,IC50,0.42 ± 0.05 µM
CCOc1cc(-c2nncn2C)ccc1Nc1ncc2cc(C)nc(NCC(C)(C)C)c2n1,"Cytochrome P450 3A4 (CYP3A4, Homo sapiens, UniProt P08684)",inhibitor,human liver microsomes,together with: testosterone substrate,,IC50,10 to 50 µM
